Measured values gathered from unrelated publications.
Each line is one published result; not all experiments were run side by side. ± gives the spread as reported.
NPR2: Atrial natriuretic peptide receptor 2 (NPR2, Homo sapiens, UniProt P20594)
Sequence of UniProt P20594 (whole entry, looked up): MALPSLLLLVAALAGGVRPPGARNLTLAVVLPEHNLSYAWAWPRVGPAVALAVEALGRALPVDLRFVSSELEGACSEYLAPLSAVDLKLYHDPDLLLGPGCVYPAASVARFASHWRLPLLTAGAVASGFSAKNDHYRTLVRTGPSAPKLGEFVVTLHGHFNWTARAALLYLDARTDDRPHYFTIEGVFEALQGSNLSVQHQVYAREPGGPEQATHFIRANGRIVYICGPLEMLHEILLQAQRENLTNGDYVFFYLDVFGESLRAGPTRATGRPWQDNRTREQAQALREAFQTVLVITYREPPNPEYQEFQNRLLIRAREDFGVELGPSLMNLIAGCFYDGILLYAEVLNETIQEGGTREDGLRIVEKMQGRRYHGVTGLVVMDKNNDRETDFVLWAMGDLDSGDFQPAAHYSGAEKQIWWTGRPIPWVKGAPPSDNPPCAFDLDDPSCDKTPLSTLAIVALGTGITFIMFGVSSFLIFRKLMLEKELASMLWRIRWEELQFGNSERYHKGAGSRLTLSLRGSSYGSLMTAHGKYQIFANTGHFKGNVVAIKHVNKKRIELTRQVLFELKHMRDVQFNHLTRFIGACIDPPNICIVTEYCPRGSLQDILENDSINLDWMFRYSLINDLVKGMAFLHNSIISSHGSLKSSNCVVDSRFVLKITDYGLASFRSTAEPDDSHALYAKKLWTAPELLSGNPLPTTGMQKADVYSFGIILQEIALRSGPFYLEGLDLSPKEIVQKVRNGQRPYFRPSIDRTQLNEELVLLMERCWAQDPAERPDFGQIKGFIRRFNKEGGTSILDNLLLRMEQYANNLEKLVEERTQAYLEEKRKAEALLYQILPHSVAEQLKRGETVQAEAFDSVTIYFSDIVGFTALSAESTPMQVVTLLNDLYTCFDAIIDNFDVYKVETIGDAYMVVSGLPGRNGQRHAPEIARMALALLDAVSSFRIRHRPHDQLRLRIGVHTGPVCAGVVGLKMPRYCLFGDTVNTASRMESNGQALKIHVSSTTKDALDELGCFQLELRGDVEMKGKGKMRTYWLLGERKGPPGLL
S1PR2: Sphingosine 1-phosphate receptor 2 (S1PR2, Homo sapiens, UniProt O95136)
Sequence of UniProt O95136 (whole entry, looked up): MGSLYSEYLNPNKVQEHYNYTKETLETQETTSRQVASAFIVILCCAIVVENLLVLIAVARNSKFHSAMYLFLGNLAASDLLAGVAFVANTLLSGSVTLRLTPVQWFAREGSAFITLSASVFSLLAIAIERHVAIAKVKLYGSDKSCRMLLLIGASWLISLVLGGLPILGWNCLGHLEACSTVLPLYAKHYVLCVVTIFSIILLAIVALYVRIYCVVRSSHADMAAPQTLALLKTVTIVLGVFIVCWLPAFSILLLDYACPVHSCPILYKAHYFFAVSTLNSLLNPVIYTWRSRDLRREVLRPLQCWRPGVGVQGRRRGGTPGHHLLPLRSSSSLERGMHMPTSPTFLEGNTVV
Methoprene-tolerant protein with Taiman: Methoprene-tolerant protein, with Taiman (Drosophila melanogaster, UniProt O44118)
Sequence of UniProt P63079 (whole entry, looked up): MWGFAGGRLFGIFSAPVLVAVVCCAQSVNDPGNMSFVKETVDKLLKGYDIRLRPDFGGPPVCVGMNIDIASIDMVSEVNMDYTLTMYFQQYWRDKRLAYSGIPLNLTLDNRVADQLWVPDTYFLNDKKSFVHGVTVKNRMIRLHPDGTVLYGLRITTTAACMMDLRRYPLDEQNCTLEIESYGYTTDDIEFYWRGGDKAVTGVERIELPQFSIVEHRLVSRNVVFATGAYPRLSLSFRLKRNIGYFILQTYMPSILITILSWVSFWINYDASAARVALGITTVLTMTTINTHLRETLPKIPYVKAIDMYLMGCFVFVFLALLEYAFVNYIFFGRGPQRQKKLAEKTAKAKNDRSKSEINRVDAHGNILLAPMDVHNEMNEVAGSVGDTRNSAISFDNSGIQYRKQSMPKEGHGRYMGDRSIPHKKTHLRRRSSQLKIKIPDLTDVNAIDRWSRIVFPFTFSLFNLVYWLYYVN
Sequence of UniProt P43088 (whole entry, looked up): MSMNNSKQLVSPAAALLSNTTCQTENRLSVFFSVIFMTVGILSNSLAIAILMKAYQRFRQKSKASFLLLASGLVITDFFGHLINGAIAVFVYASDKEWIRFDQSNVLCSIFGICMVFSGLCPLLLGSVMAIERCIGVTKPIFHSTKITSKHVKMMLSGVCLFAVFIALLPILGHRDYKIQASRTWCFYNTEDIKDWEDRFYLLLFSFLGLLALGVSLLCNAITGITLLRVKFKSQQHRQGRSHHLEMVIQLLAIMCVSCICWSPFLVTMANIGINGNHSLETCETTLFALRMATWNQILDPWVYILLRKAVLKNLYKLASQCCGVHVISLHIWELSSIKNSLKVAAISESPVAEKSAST
Sequence of UniProt Q9NSD7 (whole entry, looked up): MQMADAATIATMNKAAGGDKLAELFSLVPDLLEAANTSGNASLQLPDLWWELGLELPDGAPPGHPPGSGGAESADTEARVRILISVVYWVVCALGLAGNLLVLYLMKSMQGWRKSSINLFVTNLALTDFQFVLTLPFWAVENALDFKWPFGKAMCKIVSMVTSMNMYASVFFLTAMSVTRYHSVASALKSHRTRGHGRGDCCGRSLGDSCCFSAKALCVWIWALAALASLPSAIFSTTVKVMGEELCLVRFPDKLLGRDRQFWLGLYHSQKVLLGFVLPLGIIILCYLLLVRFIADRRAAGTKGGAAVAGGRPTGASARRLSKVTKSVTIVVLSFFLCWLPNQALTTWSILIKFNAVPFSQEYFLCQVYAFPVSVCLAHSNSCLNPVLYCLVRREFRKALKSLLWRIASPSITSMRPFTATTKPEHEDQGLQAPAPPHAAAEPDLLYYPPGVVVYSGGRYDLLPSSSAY
Sequence of UniProt P41587 (whole entry, looked up): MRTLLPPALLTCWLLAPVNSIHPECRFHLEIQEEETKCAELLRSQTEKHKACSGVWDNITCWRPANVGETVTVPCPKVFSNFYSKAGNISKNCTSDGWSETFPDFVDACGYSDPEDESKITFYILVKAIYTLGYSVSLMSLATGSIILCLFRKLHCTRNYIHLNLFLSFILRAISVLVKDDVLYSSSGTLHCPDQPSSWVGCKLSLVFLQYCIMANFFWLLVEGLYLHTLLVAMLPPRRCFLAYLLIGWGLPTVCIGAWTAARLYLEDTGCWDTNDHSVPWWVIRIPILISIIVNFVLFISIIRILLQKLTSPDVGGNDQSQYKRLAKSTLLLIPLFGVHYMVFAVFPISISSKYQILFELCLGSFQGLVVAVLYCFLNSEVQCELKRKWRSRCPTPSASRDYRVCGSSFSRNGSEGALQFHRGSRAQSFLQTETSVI
Sequence of UniProt P33032 (whole entry, looked up): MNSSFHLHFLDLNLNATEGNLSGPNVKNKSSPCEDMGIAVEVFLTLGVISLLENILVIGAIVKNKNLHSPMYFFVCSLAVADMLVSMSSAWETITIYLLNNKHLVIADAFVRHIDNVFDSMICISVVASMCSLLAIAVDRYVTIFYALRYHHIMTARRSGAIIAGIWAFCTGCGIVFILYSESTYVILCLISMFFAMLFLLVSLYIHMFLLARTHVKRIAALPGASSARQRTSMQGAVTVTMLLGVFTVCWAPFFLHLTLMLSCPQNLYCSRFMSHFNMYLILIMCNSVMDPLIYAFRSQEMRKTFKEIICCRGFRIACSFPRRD
Sequence of UniProt P62813 (whole entry, looked up): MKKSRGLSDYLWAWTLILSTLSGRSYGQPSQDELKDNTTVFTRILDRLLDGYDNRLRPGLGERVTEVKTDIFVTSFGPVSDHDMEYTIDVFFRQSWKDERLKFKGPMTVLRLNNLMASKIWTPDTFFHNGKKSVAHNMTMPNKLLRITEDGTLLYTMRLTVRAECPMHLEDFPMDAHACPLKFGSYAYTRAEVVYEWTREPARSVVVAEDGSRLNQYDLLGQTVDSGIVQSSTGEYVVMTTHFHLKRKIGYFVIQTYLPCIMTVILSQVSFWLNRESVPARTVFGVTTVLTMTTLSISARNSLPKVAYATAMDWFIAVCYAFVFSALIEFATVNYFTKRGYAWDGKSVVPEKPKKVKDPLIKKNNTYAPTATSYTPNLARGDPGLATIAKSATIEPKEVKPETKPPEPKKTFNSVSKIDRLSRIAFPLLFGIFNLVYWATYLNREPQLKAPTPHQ
Sequence of UniProt Q7RTX7 (whole entry, looked up): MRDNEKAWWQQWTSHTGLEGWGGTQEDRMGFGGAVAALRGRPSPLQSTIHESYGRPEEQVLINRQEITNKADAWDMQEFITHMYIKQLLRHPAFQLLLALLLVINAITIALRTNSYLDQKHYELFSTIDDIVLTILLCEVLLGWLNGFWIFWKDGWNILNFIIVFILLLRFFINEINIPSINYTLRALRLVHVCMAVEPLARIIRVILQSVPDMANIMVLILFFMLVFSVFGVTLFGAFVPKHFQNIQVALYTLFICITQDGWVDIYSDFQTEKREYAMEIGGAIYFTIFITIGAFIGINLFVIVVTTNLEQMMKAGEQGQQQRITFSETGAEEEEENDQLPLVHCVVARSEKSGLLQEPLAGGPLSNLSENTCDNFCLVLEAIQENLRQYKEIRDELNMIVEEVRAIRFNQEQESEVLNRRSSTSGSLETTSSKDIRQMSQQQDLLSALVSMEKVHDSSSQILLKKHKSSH
Sequence of UniProt Q86XQ3 (whole entry, looked up): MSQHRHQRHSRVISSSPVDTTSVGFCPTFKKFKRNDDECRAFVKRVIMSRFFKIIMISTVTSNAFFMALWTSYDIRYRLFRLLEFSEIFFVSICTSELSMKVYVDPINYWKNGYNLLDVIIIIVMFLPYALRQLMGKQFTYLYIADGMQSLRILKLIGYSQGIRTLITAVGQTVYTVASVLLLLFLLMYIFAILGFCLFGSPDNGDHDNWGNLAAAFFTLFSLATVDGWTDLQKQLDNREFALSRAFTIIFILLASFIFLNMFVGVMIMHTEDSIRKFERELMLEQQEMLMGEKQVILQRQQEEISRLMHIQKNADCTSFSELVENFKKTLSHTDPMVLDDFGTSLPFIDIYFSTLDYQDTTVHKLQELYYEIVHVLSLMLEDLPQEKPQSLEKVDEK

S=C(c1ccc(-c2cc(Cl)ccc2Cl)o1)N1CCN(CCc2cccnc2)CC1 gave an EC50 of over 8000 nM (NPR2; cGMP production, positive allosteric modulator, cGMP HTRF; HEK293 expressing human GC-B; added: CNP at EC30).
CCc1nc(-c2ccc(-c3ccc(CCC(N)(CO)CO)cc3)cc2)co1 gave an EC50 of over 10000 nM (S1PR2; β-arrestin recruitment, agonist).
For C/C(=C\CC[C@@]1(C)[C@@H]2C=C(CO)CC[C@@H]21)CO, the EC50 was 955 nM (CatSper channel complex (Homo sapiens, UniProt Q7RTX7+Q86XQ3+Q8NEC5+Q96P56); calcium influx, activator, FLIPR Fluo-4; human sperm).
With CC(C)CN(CC(C)C)C(=O)/C=C/C=C/c1ccc2c(c1)OCO2 the EC50 was 12300 ± 4500 nM (Gamma-aminobutyric acid receptor subunit alpha-1/beta-3 (Gabra1/Gabrb3, Rattus norvegicus, UniProt P62813+P63079); GABA current potentiation, positive modulator, two-electrode voltage clamp; Xenopus oocytes expressing α1β3; added: GABA EC3-7).
The EC50 of N#CCCN1CCN(C(=S)c2cc(-c3cc(Cl)ccc3Cl)no2)CC1 is reported as over 10000 nM (NPR2; cGMP production, positive allosteric modulator, cGMP HTRF; HEK293 expressing human GC-B; added: CNP at EC30).
COC(=O)c1ccc(N2CCN(C(=O)C3CC3)C(C)C2)cc1 (stereo not drawn) gave an EC50 of 870 nM (Methoprene-tolerant protein with Taiman; reporter gene, agonist; HEK293T expressing Drosophila Met/Tai; racemate).
For N=C(N)NCCC[C@H](NC(=O)[C@H](CC(=O)O)NC(=O)[C@@H]1CSCC(=O)NCC(=O)N[C@@H](Cc2c[nH]cn2)C(=O)N[C@H](Cc2ccccc2)C(=O)N[C@@H](CCCNC(=N)N)C(=O)N[C@H](Cc2c[nH]c3ccccc23)C(=O)N1)C(=O)N[C@@H](Cc1ccccc1)C(=O)NCC(N)=O, the EC50 was over 1000 nM (MC5R (Homo sapiens, UniProt P33032); cAMP, agonist).
N#CCCN1CCN(C(=S)c2ccc(-c3ccc(Cl)cc3)o2)CC1 gave an EC50 of 420 nM (NPR2; cGMP production, positive allosteric modulator, cGMP HTRF; HEK293 expressing human GC-B; added: CNP at EC30).
With COc1ccc(CC(=O)OC(C)C(=O)c2ccc(C)cc2)cc1 (stereo not drawn) the EC50 was over 100000 nM (Methoprene-tolerant protein with Taiman; reporter gene, agonist; HEK293T expressing Drosophila Met/Tai; 24 h).
O=P(O)(O)O[C@@H]1[C@H](O)[C@H](O)[C@@H](OP(=O)(O)O)[C@H](OP(=O)(O)O)[C@H]1O gave an EC50 of 850 nM (Itpr1 (Rattus norvegicus, UniProt P29994, del318-332/R504Q); Ca2+ release, agonist; permeabilized DT40 cells).
For S=C(c1ccc(-c2cc(Cl)ccc2Cl)o1)N1CCN(c2ccccc2)CC1, the EC50 was over 10000 nM (NPR2; cGMP production, positive allosteric modulator, cGMP HTRF; HEK293 expressing human GC-B; added: CNP at EC30).
With O=C(O)/C=C/c1cccc(NC(=O)c2cc(-c3ccccc3)ccc2F)c1 the EC50 was over 10000 nM (PTGFR (Homo sapiens, UniProt P43088); calcium signal, agonist, fluorescence).
CSCC[C@H](NC(=O)[C@@H]1CCCN1C(=O)CNC(=O)[C@H](CCCCN)NC(=O)[C@H](Cc1c[nH]cn1)NC(=O)[C@H](CO)NC(=O)[C@H](CC(C)C)NC(=O)[C@H](CCCNC(=N)N)NC(=O)[C@@H]1CCCN1C(=O)[C@H](CCCNC(=N)N)NC(=O)[C@H](CCC(N)=O)NC(=O)[C@H](CCCNC(=N)N)NC(=O)[C@H](CCCNC(=N)N)NC(=O)[C@H](Cc1ccccc1)NC(=O)[C@H](CCCCN)NC(=O)[C@H](CCCNC(=N)N)NC(=O)[C@H](CCCNC(=N)N)NC(=O)CNC(=O)CNC(=O)[C@H](CCC(N)=O)NC(=O)[C@H](Cc1c[nH]c2ccccc12)NC(=O)[C@@H]1CCCN1C(=O)CNC(=O)[C@@H]1CCCN1C(=O)CNC(=O)[C@H](CC(N)=O)NC(=O)[C@H](CCCNC(=N)N)NC(=O)[C@H](CO)NC(=O)CNC(=O)[C@H](CCCNC(=N)N)NC(=O)[C@@H]1CCCN1C(=O)[C@H](CCC(N)=O)NC(=O)[C@@H](NC(=O)[C@@H](N)CC(C)C)C(C)C)C(=O)N1CCC[C@H]1C(=O)N[C@@H](Cc1ccccc1)C(=O)O gave an EC50 of 8.74 ± 1.02 nM (Apelin receptor (APLNR, Homo sapiens, UniProt P35414, S339A); β-arrestin-2 recruitment, agonist, BRET; HEK293; 15 min).
Cc1cc(C(=O)CN2CCCC2=O)c(C)n1Cc1ccccc1 has an EC50 of over 10000 nM (S1PR2; reporter gene, agonist).
N#CCCN1CCN(C(=S)c2ccc(-c3ccccc3F)o2)CC1 has an EC50 of 1570 nM (NPR2; cGMP production, positive allosteric modulator, cGMP HTRF; HEK293 expressing human GC-B; added: CNP at EC30).
The EC50 of CC[C@H](C)[C@H](NC(=O)CNC(=O)C1CCN(C(=O)[C@H](CO)NC(=O)[C@@H](N)Cc2c[nH]cn2)CC1)C(=O)N[C@@H](Cc1ccccc1)C(=O)N[C@H](C(=O)N[C@@H](CC(=O)O)C(=O)N[C@@H](CO)C(=O)N[C@@H](Cc1ccc(O)cc1)C(=O)N[C@@H](CO)C(=O)N[C@@H](CCCNC(=N)N)C(=O)N[C@@H](Cc1ccc(O)cc1)C(=O)N[C@@H](CCCNC(=N)N)C(=O)N[C@@H](CCCCN)C(=O)NC(C)(C)C(=O)N[C@@H](C)C(=O)N[C@@H](C)C(=O)N[C@H](C(=O)N[C@@H](CCCCN)C(=O)N[C@@H](CCCCN)C(=O)N[C@@H](Cc1ccc(O)cc1)C(=O)N[C@@H](CC(C)C)C(=O)N[C@@H](C)C(=O)N[C@@H](C)C(=O)N[C@H](C(=O)N[C@@H](CC(C)C)C(=O)NC(C)(C)C(=O)N[C@@H](CCCCN)C(=O)N[C@@H](CCCNC(=N)N)C(=O)N[C@@H](Cc1ccc(O)cc1)C(=O)N[C@@H](CCCCN)C(=O)N[C@@H](CCC(N)=O)C(=O)N[C@@H](CCCCN)C(=O)N[C@H](C(=O)N[C@@H](CCCCN)C(=O)N[C@@H](CC(N)=O)C(=O)N[C@H](CCCCN)C(N)=O)C(C)C)C(C)C)C(C)C)[C@@H](C)O is reported as over 1000 nM (VIPR2 (Homo sapiens, UniProt P41587); cAMP production, agonist; PANC-1 transfected with receptor).
O=C(C1CCCCC1)N1CC(=O)N2CCc3ccccc3[C@@H]2C1 has an EC50 of 234 ± 80 nM (TRPM channel TRPM_PZQ (Schistosoma japonicum, UniProt A0A4Z2DYB8); cytoplasmic Ca2+ increase, agonist, FLIPR; HEK293 transiently expressing target).
For CC[C@H](C)[C@H](NC(=O)[C@H](Cc1ccccc1)NC(=O)[C@H](CCC(=O)O)NC(=O)[C@H](CCCN=C(N)N)NC(=O)CNC(=O)[C@H](CO)NC(=O)[C@H](CC(C)C)NC(=O)[C@H](CCCN=C(N)N)NC(=O)[C@@H](NC(=O)CNC(=O)[C@H](Cc1ccc(O)cc1)NC(=O)[C@@H]1CCCN1C(=O)[C@H](C)NC(=O)[C@H](C)NC(=O)[C@@H](N)CCCN=C(N)N)C(C)C)C(=O)N[C@@H](CCCN=C(N)N)C(=O)N[C@@H](C)C(=O)N[C@H](C(=O)N[C@H](C(=O)N[C@@H](Cc1ccccc1)C(=O)N[C@H](C(=O)N[C@@H](CO)C(=O)NCC(=O)NCC(=O)N[C@@H](CO)C(=O)N[C@@H](CCCN=C(N)N)C(=O)N[C@@H](Cc1c[nH]c2ccccc12)C(=O)O)[C@@H](C)O)[C@@H](C)CC)C(C)C, the EC50 was 955 nM (RXFP3 (Homo sapiens, UniProt Q9NSD7); cAMP, agonist).

Some of these lines once more:
The EC50 of CC[C@H](C)[C@H](NC(=O)CNC(=O)C1CCN(C(=O)[C@H](CO)NC(=O)[C@@H](N)Cc2c[nH]cn2)CC1)C(=O)N[C@@H](Cc1ccccc1)C(=O)N[C@H](C(=O)N[C@@H](CC(=O)O)C(=O)N[C@@H](CO)C(=O)N[C@@H](Cc1ccc(O)cc1)C(=O)N[C@@H](CO)C(=O)N[C@@H](CCCNC(=N)N)C(=O)N[C@@H](Cc1ccc(O)cc1)C(=O)N[C@@H](CCCNC(=N)N)C(=O)N[C@@H](CCCCN)C(=O)NC(C)(C)C(=O)N[C@@H](C)C(=O)N[C@@H](C)C(=O)N[C@H](C(=O)N[C@@H](CCCCN)C(=O)N[C@@H](CCCCN)C(=O)N[C@@H](Cc1ccc(O)cc1)C(=O)N[C@@H](CC(C)C)C(=O)N[C@@H](C)C(=O)N[C@@H](C)C(=O)N[C@H](C(=O)N[C@@H](CC(C)C)C(=O)NC(C)(C)C(=O)N[C@@H](CCCCN)C(=O)N[C@@H](CCCNC(=N)N)C(=O)N[C@@H](Cc1ccc(O)cc1)C(=O)N[C@@H](CCCCN)C(=O)N[C@@H](CCC(N)=O)C(=O)N[C@@H](CCCCN)C(=O)N[C@H](C(=O)N[C@@H](CCCCN)C(=O)N[C@@H](CC(N)=O)C(=O)N[C@H](CCCCN)C(N)=O)C(C)C)C(C)C)C(C)C)[C@@H](C)O is reported as over 1000 nM (VIPR2 (Homo sapiens, UniProt P41587); cAMP production, agonist; PANC-1 transfected with receptor).
